Measured values of several laboratories.
Compare with care: the assays were run in different laboratories. Numbers after ± are the reported error.
FPR1: fMet-Leu-Phe receptor (FPR1, Homo sapiens, UniProt P21462)
PYL4: PYL4 (Arabidopsis thaliana, UniProt O80920)
IDE: Insulin-degrading enzyme (IDE, Homo sapiens, UniProt P14735)
ADRB2: Beta-2 adrenergic receptor (ADRB2, Homo sapiens, UniProt P07550)
PPARG: Peroxisome proliferator-activated receptor gamma (PPARG, Homo sapiens, UniProt P37231)
Cone cGMP-gated channel: Cone cGMP-gated channel (Morone saxatilis, UniProt Q3I0N1+Q3I0N2)

c1ccc(CCCCCOCCc2ccc3c(c2)OCO3)cc1  EC50 (ATP2A2 (Sus scrofa, UniProt P11607); ATPase activity, activator, NADH-coupled enzyme; enriched microsomes): ~4000 nM
N#Cc1ccc(C[C@@H](Nc2nnc(-c3ccc(F)cc3)s2)C(=O)N2CCc3ccccc32)cc1  EC50 (FPR1; calcium mobilization, agonist; HL-60 transfected with FPR1; inactive up to 50 µM): > 50000 nM
COc1ccc(C(=O)c2ccccc2)c(O)c1  EC50 (Androgen receptor (AR, Homo sapiens, UniProt P10275); human cells): 13600 nM
Cc1ccc(C(=O)NCc2cn(-c3c(C4CC4)cc(CC(=O)NC4(C(=O)O)CCCCC4)cc3C3CC3)nn2)o1  EC50 (PYL4; phosphatase activity recovery, antagonist; with: HAB1, ABA 5000 nM): 549 ± 84 nM
CO[C@H]1CN(C)C(=O)c2cc(NC(=O)c3ccc(Oc4ccccc4)cc3)ccc2OC[C@H](C)NC[C@H]1C  EC50 (IDE; enzyme activity, inhibitor, fluorogenic kinetic; with: Mca-RPPGFSAFK(Dnp)-OH substrate): 2800 nM
N#Cc1ccc(C[C@H](NC(=O)c2cc3ccccc3[nH]2)C(=O)N2CCc3ccccc32)cc1  EC50 (FPR1; calcium mobilization, agonist; HL-60 transfected with FPR1; inactive up to 50 µM): > 50000 nM
CSc1nc(N)c2ncn([C@@H]3O[C@H](COP(=O)(O)OP(=O)(O)O)[C@@H](O)[C@H]3O)c2n1  EC50 (P2Y purinoceptor 12 (P2RY12, Homo sapiens, UniProt Q9H244); agonist, cell-based): 0.944 nM
N#Cc1ccc(C[C@H](Nc2ncc(-c3ccc(F)cc3)o2)C(=O)N2CCc3ccccc32)cc1  EC50 (FPR1; calcium mobilization, agonist; HL-60 transfected with FPR1; inactive up to 50 µM): > 50000 nM
Cc1cccc(-c2ccc([C@@H]3[C@@H](CO)N4C/C=C\CN(S(=O)(=O)c5cnc(C)n5C)C[C@@H]34)cc2)c1C  EC50 (IDE; enzyme activity, inhibitor, fluorescence kinetic; with: Mca-RPPGFSAFK(Dnp)-OH substrate): 1 nM
Cn1cc(-c2cnc(N)n3nc(-c4ccco4)nc23)ccc1=O  EC50 (ADORA1 (Homo sapiens, UniProt P30542)): > 100000 nM
Cn1cc2c(C(=O)O)ccc(NS(=O)(=O)c3ccc(OCC4CCC4)c(Cl)c3)c2n1  EC50 (ADRB2; antagonist): > 10000 nM
O=C(O)CCCc1cc2cc(Cl)ccc2n1S(=O)(=O)c1ccc2ncsc2c1  EC50 (PPARG; receptor activation, agonist, luciferase reporter; serum-free, species human): 500 nM
N#Cc1ccc(C[C@H](Nc2c(Nc3ccc(Br)cc3)c(=O)c2=O)C(=O)N2CCc3ccccc32)cc1  EC50 (FPR1; calcium mobilization, agonist; HL-60 transfected with FPR1; inactive up to 50 µM): > 50000 nM
Cc1cccc(-c2ccc([C@@H]3[C@H](CO)N4CCCCN(S(=O)(=O)c5cn(C)cn5)C[C@@H]34)cc2)c1  EC50 (IDE; enzyme activity, inhibitor, fluorogenic kinetic; with: Mca-RPPGFSAFK(Dnp)-OH substrate): 2100 nM
CSc1ccc(C(=O)/C=C/c2cc(C)c(OC(C)(C)C(=O)O)c(C)c2)cc1  EC50 (PPARG; receptor activation, agonist, luciferase reporter; serum-free, species human): 1000 nM
COc1ccccc1-c1ccc([C@@H]2[C@@H](CO)N3CCCCN(S(=O)(=O)c4ccccc4C)C[C@@H]23)cc1  EC50 (IDE; enzyme activity, inhibitor, fluorescence kinetic; with: Mca-RPPGFSAFK(Dnp)-OH substrate): 250 nM
O=C(Cc1cc(C2CC2)c(-n2cc(CNC(=O)c3ccc(Cl)s3)nn2)c(C2CC2)c1)NC1(C(=O)O)CCCCC1  EC50 (PYL4; phosphatase activity recovery, antagonist; with: HAB1, ABA 5000 nM): 390 ± 63 nM
Cc1ccccc1-c1ccc([C@@H]2[C@@H](CO)N3CCCCN(C(=O)NC4CCCC4)C[C@H]23)cc1  EC50 (IDE; enzyme activity, inhibitor, fluorogenic kinetic; with: Mca-RPPGFSAFK(Dnp)-OH substrate): 3600 nM
CCO[C@H](COc1ccc(C(F)(F)F)cc1)CSc1ccc(OCC(=O)O)c(C)c1  EC50 (Ppard (Mus musculus, UniProt P35396); reporter gene, agonist, luciferase reporter; mouse; serum-free): 300 nM
N#Cc1ccc(C[C@H](NC(=O)c2cc3cc([N+](=O)[O-])ccc3[nH]2)C(=O)N2CCc3ccccc32)cc1  EC50 (FPR1; calcium mobilization, agonist; HL-60 transfected with FPR1; inactive up to 50 µM): > 50000 nM
CCCCC[C@H](O)/C=C/[C@H]1C(=O)C[C@H](O)[C@@H]1C/C=C\CCCC(=O)O  EC50 (PTGDR (Homo sapiens, UniProt Q13258, C130R/D319N/del234-257/H263A); Gs protein activation, agonist, BRET): > 10000 nM
CCOCc1nc(O)c(-c2nnc(Cc3ccc(Cl)cn3)o2)c(O)c1-c1c(OC)cccc1OC  EC50 (Apelin receptor (APLNR, Homo sapiens, UniProt P35414); GαoA activation, agonist, BRET biosensor; HEK293): 0.2 ± 0.02 nM
CCn1c(-c2nc3ccc(C(=O)N4CCCC(N)C4)cc3n2C)cc2ccccc21 (stereo not shown)  EC50 (ADRB2; agonist, TR-FRET): > 31600 nM
N[C@@H](CCC(=O)O)C(=O)O  EC50 (Excitatory amino acid transporter 5 (Slc1a7, Mus musculus, UniProt Q8JZR4); anion current, agonist, whole-cell patch clamp; mouse rod photoreceptors; -70 mV, uncaging): 10500 ± 1730 nM
O=C(Cc1cc(C2CC2)c(-n2cc(CNC(=O)c3ccc4ccccc4c3)nn2)c(C2CC2)c1)NC1(C(=O)O)CCCCC1  EC50 (PYL4; phosphatase activity recovery, antagonist; with: HAB1, ABA 5000 nM): 669 ± 89 nM
N#Cc1ccc(C[C@H](Nc2nnc(-c3ccc(F)cc3)o2)C(=O)N2CCc3ccccc32)cc1  EC50 (FPR1; calcium mobilization, agonist; HL-60 transfected with FPR1; inactive up to 50 µM): > 50000 nM
Nc1nc2c(ncn2[C@@H]2O[C@@H]3COP(=O)(O)O[C@H]3[C@H]2O)c(=O)[nH]1  EC50 (Cone cGMP-gated channel; cGMP-gated channel current, agonist, suction electrode; Morone saxatilis, single cone outer segment; with: 0.4 mM zaprinast, 1 mM Mg2+, 0 µM Ca2+): 121000 ± 9300 nM
Cc1cccc(-c2ccc([C@@H]3[C@@H](CO)N4CCCCN(Cc5cncnc5)C[C@@H]34)cc2)c1  EC50 (IDE; enzyme activity, inhibitor, fluorogenic kinetic; with: Mca-RPPGFSAFK(Dnp)-OH substrate): 11900 nM
CCCCC[C@H](O)/C=C/[C@H]1[C@H](O)CC(=O)[C@@H]1C/C=C\CCCC(=O)O  EC50 (PTGER1 (Homo sapiens, UniProt P34995, F189A); IP1 accumulation, agonist; AD293; EP1 F189A mutant): 178 nM
O=C(Cc1cc(C2CC2)c(-n2cc(CNC(=O)c3cnc(Br)s3)nn2)c(C2CC2)c1)NC1(C(=O)O)CCCCC1  EC50 (PYL4; phosphatase activity recovery, antagonist; with: HAB1, ABA 5000 nM): 284 ± 49 nM
Cc1ccccc1S(=O)(=O)N1CCCCN2[C@H](CO)[C@@H](c3ccc(-c4cccc(F)c4C)cc3)[C@@H]2C1  EC50 (IDE; enzyme activity, inhibitor, fluorescence kinetic; with: Mca-RPPGFSAFK(Dnp)-OH substrate): 70 nM
O=C(Cc1cc(C2CC2)c(-n2cc(CNC(=O)c3cnc4ccccc4n3)nn2)c(C2CC2)c1)NC1(C(=O)O)CCCCC1  EC50 (PYL4; phosphatase activity recovery, antagonist; with: HAB1, ABA 5000 nM): 128 ± 14 nM
Cc1cccc(-c2ccc([C@@H]3[C@@H](CO)N4C(=O)CN(C(=O)c5cnccn5)C[C@@H]34)cc2)c1  EC50 (IDE; enzyme activity, inhibitor, fluorogenic kinetic; with: Mca-RPPGFSAFK(Dnp)-OH substrate): 5000 nM
O=C(Cc1cc(C2CC2)c(-n2cc(CNC(=O)c3csc(Br)c3)nn2)c(C2CC2)c1)NC1(C(=O)O)CCCCC1  EC50 (PYL4; phosphatase activity recovery, antagonist; with: HAB1, ABA 5000 nM): 247 ± 38 nM
Nc1nc(O)c2nc(Br)n([C@@H]3O[C@@H]4COP(=O)(O)O[C@H]4[C@H]3O)c2n1  EC50 (Cone cGMP-gated channel; cGMP-gated current, suction electrode; striped bass (Morone saxatilis), single cone outer segment; with: Ca2+ 20 µM): 77000 nM
N#Cc1ccc(C[C@H](Nc2nnc(-c3cccc(F)c3)s2)C(=O)N2CCc3ccccc32)cc1  EC50 (FPR1; calcium mobilization, agonist; HL-60 transfected with FPR1; inactive up to 50 µM): > 50000 nM
O=C(Cc1cc(C2CC2)c(-n2cc(CNC(=O)c3cccc(Br)n3)nn2)c(C2CC2)c1)NC1(C(=O)O)CCCCC1  EC50 (PYL4; phosphatase activity recovery, antagonist; with: HAB1, ABA 5000 nM): 568 ± 67 nM

Repeated from above:
N[C@@H](CCC(=O)O)C(=O)O  EC50 (Excitatory amino acid transporter 5 (Slc1a7, Mus musculus, UniProt Q8JZR4); anion current, agonist, whole-cell patch clamp; mouse rod photoreceptors; -70 mV, uncaging): 10500 ± 1730 nM
CCOCc1nc(O)c(-c2nnc(Cc3ccc(Cl)cn3)o2)c(O)c1-c1c(OC)cccc1OC  EC50 (Apelin receptor (APLNR, Homo sapiens, UniProt P35414); GαoA activation, agonist, BRET biosensor; HEK293): 0.2 ± 0.02 nM
COc1ccccc1-c1ccc([C@@H]2[C@@H](CO)N3CCCCN(S(=O)(=O)c4ccccc4C)C[C@@H]23)cc1  EC50 (IDE; enzyme activity, inhibitor, fluorescence kinetic; with: Mca-RPPGFSAFK(Dnp)-OH substrate): 250 nM
N#Cc1ccc(C[C@H](NC(=O)c2cc3cc([N+](=O)[O-])ccc3[nH]2)C(=O)N2CCc3ccccc32)cc1  EC50 (FPR1; calcium mobilization, agonist; HL-60 transfected with FPR1; inactive up to 50 µM): > 50000 nM
CCn1c(-c2nc3ccc(C(=O)N4CCCC(N)C4)cc3n2C)cc2ccccc21 (stereo not shown)  EC50 (ADRB2; agonist, TR-FRET): > 31600 nM
O=C(Cc1cc(C2CC2)c(-n2cc(CNC(=O)c3ccc4ccccc4c3)nn2)c(C2CC2)c1)NC1(C(=O)O)CCCCC1  EC50 (PYL4; phosphatase activity recovery, antagonist; with: HAB1, ABA 5000 nM): 669 ± 89 nM
